Published values of several laboratories.
Compare with care: the assays were run in different laboratories. Numbers after ± are the reported error.

| Structure (SMILES) | tested on | test | system | conditions | scale | endpoint | value |
| --- | --- | --- | --- | --- | --- | --- | --- |
| N#Cc1ccc(-c2ccc(-c3cccs3)o2)c(F)c1 | Salmonella enterica | sodium azide mutagenicity | TA1535 | 10 µM, 48 h, with: sodium azide 2 µg/plate co-exposure | – | inhibition | 86% |
| CNC(C)Cc1ccc2c(c1)OCO2 (racemic) | – | visual analog scale, item: Confident | human | oral, 0.75 mg/kg, mean over session, unit not given | relative to: pre-dose baseline | mood rating | 1.3 |
| CP(=O)(O)CCC(N)C(=O)O (centres unmarked) | Eleusine indica | – | – | 500 g/ha, 13 days, ELEIN, post-emergence spray | relative to: untreated (0%), complete kill (100%) | herbicidal activity | 100% |
| O=Cc1cn(Cc2ccc(F)cc2)c2ccc([N+](=O)[O-])cc12 | Leishmania donovani | parasite growth, resazurin | THP-1 | 24 h, intracellular, amastigote | – | IC50 | > 10 µM |
| CC(C)c1ccc2c(c1)CC[C@H]1[C@](C)(CN)CCC[C@]21C | 1205Lu | cell growth or viability, MTS | – | 72 h | – | IC50 | 1.35 µM |
| CCCCCc1cc(O)c2c(c1)OC(C)(C)[C@@H]1CCC(C)=C[C@@H]21 | – | drug discrimination | C57BL/6J mice, female | intraperitoneal, 30 min pretreatment | – | ED50 | 1.96 mg/kg |
| N=C(N)c1ccc(-c2ccc(-c3cccs3)o2)cc1F | Salmonella enterica | sodium azide mutagenicity | TA1535 | 10 µM, 48 h, with: sodium azide 2 µg/plate co-exposure | – | inhibition | 87% |
| O=S(=O)(c1cccc2c(I)cccc12)N1CCCNCC1 | HEK293 expressing MOR | morphine-induced cAMP overshoot, HTRF cAMP | – | 1 µM, with: NKH 477 25 nM | relative to: morphine control | efficacy | 61% |
| O=S(=O)(CC1CS1)c1ccc(Oc2ccccc2)cc1 (centres unmarked) | HBMEC monolayer BBB model | Aβ transcytosis | – | 100 nM, 0 to 60 min, 37 °C, with: fluorescein-Aβ(1-42) 2 µM | relative to: control | increase in Papp | > 50% |
| CN[C@@](C)(C[18F])C(=O)O | – | – | SCID mouse SK-OV-3 xenograft, kidney | 15 min, post injection | – | tissue uptake | 18 ± 3.4 %ID/g |
| N=C(N)c1ccc(-c2ccc(-c3cccs3)o2)c(F)c1 | Salmonella enterica | – | TA1535 | 10 µM, 48 h, with: sodium azide co-exposure | relative to: sodium azide alone | mutant frequency | 18% |
| O=c1c(O)c(-c2cc(O)c(O)c(O)c2)oc2cc(O)cc(O)c12 | influenza virus | viral replication | MDCK | 72 h | – | IC50 | > 10 µM |
| CC(C)(NC(=O)O[C@@H]1CN2CCC1CC2)c1csc(-c2ccc(F)cc2)n1 | – | MRI | GD3 adults, whole brain | dose not given, 1 year | relative to: baseline | change in brain volume | 307 ± 4250 mm³ |
| N#Cc1ccc(-c2ccc(-c3cccs3)o2)cc1F | Salmonella enterica | – | TA1535 | 20 µM, 48 h, with: sodium azide after pre-exposure | relative to: sodium azide alone | mutant frequency | 21% |
| CCCNc1nccnc1C(=O)O | Mycobacterium tuberculosis variant bovis BCG | microbial growth | ATCC35734 BCG | 5 days | – | IC50 | 200 µM |
| C[C@H](Cn1cnc2c(N)ncnc21)OCP(=O)(O)O | human alphaherpesvirus 2 | virus production, plaque reduction | human monocytes/macrophages | 500 µg/mL, 6 days | – | inhibition | 100% |
| N=C(N)c1ccc(-c2ccc(-c3ccco3)o2)cc1F | Salmonella enterica | sodium azide mutagenicity | TA1535 | 10 µM, 48 h, with: sodium azide 2 µg/plate co-exposure | – | inhibition | 103% |
| CCCCCCCCCCCCCCCCCCOCC(COP(=O)([O-])OCC[N+](C)(C)C)OC (centres unmarked) | HEK293 expressing MOR | cAMP overshoot, inhibitor, HTRF cAMP | – | with: morphine then naloxone | – | IC50 | 18.4 µM |
| CC(C)CCCC(C)CCN1CCn2cc(C(=O)NCc3ccc(F)cc3F)c(=O)c(O)c2C1=O (centres unmarked) | HIV-1 integrase wild type | viral replication | HOS, HIV-1 | single-round vector | – | EC50 | > 0.02 µM |
| N#Cc1ccc(-c2ccc(-c3cccs3)s2)cc1F | Salmonella enterica | – | TA1535 | 10 µM, 48 h, with: sodium azide co-exposure | relative to: sodium azide alone | mutant frequency | 25% |

Excerpt of the above:
| Structure (SMILES) | tested on | test | system | conditions | scale | endpoint | value |
| --- | --- | --- | --- | --- | --- | --- | --- |
| CC(C)CCCC(C)CCN1CCn2cc(C(=O)NCc3ccc(F)cc3F)c(=O)c(O)c2C1=O (centres unmarked) | HIV-1 integrase wild type | viral replication | HOS, HIV-1 | single-round vector | – | EC50 | > 0.02 µM |
| CN[C@@](C)(C[18F])C(=O)O | – | – | SCID mouse SK-OV-3 xenograft, kidney | 15 min, post injection | – | tissue uptake | 18 ± 3.4 %ID/g |
